Measured values of several laboratories.
Values joined by “and” are separate records of one study, mostly repeats; a detail may differ. ± gives the spread as reported.
ESR1: Estrogen receptor (ESR1, Homo sapiens, UniProt P03372)
Sequence of UniProt P03372 (whole entry, looked up): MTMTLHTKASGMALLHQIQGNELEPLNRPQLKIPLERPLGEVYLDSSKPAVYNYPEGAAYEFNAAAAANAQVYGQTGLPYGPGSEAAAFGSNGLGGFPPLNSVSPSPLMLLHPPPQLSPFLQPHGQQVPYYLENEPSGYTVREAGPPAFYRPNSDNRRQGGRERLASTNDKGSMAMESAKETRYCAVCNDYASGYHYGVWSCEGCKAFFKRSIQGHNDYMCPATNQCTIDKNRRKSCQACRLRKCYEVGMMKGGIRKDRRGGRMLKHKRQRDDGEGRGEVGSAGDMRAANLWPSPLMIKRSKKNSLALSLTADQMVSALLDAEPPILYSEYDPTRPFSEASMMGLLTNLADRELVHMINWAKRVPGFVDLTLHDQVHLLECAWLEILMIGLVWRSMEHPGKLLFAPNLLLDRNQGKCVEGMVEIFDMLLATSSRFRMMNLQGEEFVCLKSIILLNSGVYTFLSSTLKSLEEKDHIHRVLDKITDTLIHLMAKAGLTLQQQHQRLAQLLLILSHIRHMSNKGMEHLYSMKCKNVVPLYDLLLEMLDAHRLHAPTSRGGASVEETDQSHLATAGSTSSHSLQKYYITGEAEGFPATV
Genome polyprotein NS3 helicase domain: Genome polyprotein, NS3 helicase domain (Hepatitis C virus genotype 1b, UniProt Q9WMX2)
WD repeat-containing protein 91 WD40 domain, residues 392–747: WD repeat-containing protein 91, WD40 domain, residues 392–747 (Homo sapiens, UniProt A4D1P6)
Sequence of UniProt P51575 (whole entry, looked up): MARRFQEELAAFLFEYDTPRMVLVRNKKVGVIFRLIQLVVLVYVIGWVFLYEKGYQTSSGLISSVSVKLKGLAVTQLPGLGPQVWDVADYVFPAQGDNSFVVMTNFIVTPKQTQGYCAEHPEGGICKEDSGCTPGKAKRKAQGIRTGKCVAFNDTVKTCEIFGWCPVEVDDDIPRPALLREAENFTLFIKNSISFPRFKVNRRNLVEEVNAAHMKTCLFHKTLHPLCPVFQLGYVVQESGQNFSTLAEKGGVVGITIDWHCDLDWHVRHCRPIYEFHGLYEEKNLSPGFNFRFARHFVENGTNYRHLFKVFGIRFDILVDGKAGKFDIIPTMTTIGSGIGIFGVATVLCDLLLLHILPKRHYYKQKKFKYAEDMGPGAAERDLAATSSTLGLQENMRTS
Sequence of UniProt A4D1P6 (whole entry, looked up): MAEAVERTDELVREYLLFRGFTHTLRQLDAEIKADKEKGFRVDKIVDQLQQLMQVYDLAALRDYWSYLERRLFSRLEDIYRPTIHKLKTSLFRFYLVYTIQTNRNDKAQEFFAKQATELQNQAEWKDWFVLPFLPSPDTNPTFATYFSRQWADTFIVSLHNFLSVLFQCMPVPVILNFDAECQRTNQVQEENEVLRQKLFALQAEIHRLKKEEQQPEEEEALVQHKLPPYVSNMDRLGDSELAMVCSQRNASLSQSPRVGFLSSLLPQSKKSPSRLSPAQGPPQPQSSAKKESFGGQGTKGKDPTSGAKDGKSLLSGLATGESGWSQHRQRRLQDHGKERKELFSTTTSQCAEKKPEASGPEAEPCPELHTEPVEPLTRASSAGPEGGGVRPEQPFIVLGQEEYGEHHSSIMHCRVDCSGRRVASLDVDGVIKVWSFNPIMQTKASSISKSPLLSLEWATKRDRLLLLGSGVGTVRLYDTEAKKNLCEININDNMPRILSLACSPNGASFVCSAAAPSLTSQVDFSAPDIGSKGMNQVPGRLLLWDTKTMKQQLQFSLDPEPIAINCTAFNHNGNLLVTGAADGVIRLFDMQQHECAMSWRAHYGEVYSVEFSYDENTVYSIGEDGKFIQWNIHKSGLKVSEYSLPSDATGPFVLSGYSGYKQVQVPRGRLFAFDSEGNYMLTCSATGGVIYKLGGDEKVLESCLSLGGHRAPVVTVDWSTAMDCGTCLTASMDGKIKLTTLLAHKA
Sequence of UniProt P46109 (whole entry, looked up): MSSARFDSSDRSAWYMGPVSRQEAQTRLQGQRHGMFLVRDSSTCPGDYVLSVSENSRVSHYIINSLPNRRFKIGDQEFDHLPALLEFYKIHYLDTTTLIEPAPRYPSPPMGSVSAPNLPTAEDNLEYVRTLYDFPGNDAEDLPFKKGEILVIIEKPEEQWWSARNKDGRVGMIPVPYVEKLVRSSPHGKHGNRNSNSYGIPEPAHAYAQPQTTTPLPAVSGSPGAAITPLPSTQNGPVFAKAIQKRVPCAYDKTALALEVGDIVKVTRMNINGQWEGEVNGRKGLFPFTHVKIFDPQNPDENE
Sequence of UniProt P31424 (whole entry, looked up): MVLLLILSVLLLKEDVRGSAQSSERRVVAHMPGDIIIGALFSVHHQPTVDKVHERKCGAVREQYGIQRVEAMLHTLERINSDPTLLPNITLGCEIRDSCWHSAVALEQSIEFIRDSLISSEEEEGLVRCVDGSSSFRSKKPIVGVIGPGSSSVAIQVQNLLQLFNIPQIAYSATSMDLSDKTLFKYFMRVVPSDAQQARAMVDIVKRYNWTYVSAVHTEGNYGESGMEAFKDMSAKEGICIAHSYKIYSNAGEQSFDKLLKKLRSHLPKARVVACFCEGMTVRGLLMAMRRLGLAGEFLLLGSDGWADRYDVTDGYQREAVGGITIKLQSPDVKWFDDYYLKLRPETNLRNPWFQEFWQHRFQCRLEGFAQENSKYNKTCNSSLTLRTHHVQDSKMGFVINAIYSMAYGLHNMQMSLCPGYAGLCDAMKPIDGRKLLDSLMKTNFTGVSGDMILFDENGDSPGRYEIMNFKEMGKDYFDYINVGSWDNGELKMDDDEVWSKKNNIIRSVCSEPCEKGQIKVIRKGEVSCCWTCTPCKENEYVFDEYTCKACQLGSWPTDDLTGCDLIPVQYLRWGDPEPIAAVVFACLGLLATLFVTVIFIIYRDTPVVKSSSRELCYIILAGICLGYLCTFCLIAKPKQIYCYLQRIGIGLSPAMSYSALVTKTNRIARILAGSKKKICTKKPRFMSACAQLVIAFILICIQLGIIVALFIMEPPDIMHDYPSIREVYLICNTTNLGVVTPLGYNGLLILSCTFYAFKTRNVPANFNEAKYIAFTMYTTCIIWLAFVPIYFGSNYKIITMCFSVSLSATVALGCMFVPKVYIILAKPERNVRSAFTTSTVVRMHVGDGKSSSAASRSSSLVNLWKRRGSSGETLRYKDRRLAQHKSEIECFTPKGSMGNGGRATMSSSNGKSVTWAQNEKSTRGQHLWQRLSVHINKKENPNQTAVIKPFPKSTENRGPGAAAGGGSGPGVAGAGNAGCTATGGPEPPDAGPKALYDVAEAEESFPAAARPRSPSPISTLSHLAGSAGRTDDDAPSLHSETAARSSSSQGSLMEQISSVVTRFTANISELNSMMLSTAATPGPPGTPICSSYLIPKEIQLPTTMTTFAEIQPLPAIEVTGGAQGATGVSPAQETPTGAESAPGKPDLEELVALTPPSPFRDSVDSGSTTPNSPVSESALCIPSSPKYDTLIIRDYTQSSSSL
Sequence of UniProt Q93015 (whole entry, looked up): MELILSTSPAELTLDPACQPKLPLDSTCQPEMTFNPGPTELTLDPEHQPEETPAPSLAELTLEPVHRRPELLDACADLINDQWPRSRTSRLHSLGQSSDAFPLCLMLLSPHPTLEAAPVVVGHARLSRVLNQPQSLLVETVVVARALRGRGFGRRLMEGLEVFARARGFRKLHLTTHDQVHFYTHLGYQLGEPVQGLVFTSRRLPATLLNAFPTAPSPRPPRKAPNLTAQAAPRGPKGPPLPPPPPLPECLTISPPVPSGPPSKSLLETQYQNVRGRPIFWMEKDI
Sequence of UniProt Q04727 (whole entry, looked up): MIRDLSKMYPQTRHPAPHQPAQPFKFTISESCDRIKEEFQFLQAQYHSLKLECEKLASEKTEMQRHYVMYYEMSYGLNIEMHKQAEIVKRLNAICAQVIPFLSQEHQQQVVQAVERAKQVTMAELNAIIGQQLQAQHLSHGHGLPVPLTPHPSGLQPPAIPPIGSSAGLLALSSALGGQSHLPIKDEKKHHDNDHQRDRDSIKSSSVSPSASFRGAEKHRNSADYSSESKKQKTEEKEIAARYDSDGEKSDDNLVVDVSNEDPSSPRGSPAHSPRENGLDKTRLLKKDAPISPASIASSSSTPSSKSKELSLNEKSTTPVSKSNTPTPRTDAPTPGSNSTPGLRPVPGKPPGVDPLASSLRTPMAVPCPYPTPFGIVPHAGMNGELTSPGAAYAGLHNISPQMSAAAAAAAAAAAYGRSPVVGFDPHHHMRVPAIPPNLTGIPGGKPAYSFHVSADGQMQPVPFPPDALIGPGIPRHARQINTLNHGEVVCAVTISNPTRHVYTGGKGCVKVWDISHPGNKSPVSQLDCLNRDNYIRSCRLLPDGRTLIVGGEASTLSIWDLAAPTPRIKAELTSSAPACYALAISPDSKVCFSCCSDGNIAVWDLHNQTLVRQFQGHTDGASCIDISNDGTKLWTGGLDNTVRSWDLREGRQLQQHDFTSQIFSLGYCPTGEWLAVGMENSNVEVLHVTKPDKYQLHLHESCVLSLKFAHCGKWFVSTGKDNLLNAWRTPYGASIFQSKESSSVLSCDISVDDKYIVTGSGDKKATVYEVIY
Sequence of UniProt P31947 (whole entry, looked up): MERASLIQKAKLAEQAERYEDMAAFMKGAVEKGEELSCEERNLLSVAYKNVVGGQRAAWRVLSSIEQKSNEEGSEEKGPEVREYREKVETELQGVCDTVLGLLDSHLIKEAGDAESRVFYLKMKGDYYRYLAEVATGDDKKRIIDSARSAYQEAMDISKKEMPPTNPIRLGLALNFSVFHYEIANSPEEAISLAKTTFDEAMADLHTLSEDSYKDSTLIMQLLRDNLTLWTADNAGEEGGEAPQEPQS
Sequence of UniProt P21554 (whole entry, looked up): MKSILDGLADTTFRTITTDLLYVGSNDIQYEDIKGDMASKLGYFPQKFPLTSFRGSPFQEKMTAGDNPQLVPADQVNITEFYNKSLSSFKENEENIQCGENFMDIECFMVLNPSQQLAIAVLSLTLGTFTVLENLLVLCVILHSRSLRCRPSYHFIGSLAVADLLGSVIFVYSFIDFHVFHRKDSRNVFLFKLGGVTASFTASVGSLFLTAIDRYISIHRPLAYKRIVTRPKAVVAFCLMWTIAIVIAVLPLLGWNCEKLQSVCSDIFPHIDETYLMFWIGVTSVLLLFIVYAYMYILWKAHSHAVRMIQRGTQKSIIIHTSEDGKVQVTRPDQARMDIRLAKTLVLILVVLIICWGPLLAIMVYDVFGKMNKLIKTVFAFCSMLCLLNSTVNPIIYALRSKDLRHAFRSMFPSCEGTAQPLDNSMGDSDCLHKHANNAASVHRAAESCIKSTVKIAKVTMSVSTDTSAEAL

CCCCN1/C(=C/C=C/c2sc3ccc(Br)cc3[n+]2CCCC)Sc2ccc(Br)cc21.[I-]  Hill coefficient (Protein arginine N-methyltransferase 3 (PRMT3, Homo sapiens, UniProt O60678); inhibitor, filter binding; together with: R4 peptide substrate): 2.44
Nc1ncnc2c(CN3CC(CSc4ccc(Cl)cc4)[C@H](O)C3)c[nH]c12 (stereo partly shown)  k3 (Aminodeoxyfutalosine nucleosidase (Helicobacter pylori, UniProt Q9ZMY2); forward isomerization rate): 16 ± 8 min⁻¹
CC[C@H](C)[C@H](NC(=O)[C@H](CCCCN)NC(=O)CNC(=O)[C@@H](NC(=O)[C@@H](NC(=O)[C@H](CCSC)NC(=O)[C@H](Cc1c[nH]cn1)NC(=O)CN)[C@@H](C)O)C(C)C)C(=O)N[C@@H](Cc1ccc(O)cc1)C(=O)N[C@@H](C)C(=O)N[C@@H](C)C(=O)N[C@@H](CCSC)C(=O)N[C@@H](CCSC)C(=O)N[C@H](C(=O)N[C@@H](CCSC)C(=O)N[C@@H](CCC(=O)O)C(=O)N[C@@H](Cc1ccc(O)cc1)C(=O)N[C@@H](Cc1ccc(O)cc1)C(=O)N[C@@H](CCCNC(=N)N)C(=O)N[C@@H](CCC(N)=O)C(=O)N[C@@H](CO)C(=O)N[C@@H](CCCCN)C(=O)N[C@@H](C)C(=O)N[C@@H](CCCCN)C(=O)N[C@@H](CCCCN)C(=O)N[C@@H](CC(C)C)C(=O)N[C@@H](CCC(N)=O)C(=O)N[C@@H](C)C(=O)N[C@@H](CCSC)C(=O)N[C@@H](CCCNC(=N)N)C(=O)O)[C@@H](C)CC  ΔH (Calmodulin-1, Ca2+-bound C-lobe (CALM1, Homo sapiens, UniProt P0DP23); binding, competition ITC; concentration not given, 15 °C, endothermic, together with: pre-formed Ca2+/N-lobe–CaV2.1 IQ complex): 6.98 ± 0.12 kcal/mol
Oc1ccc2c(c1)OC[C@]1(O)Cc3cc(O)c(O)cc3[C@H]21  selectivity ratio (ESR1; array formation; PRL-HeLa; baseline: EC50 ERβ over EC50 ERα): 44.3
O=S(=O)(NC1CCN(c2ncnc3c2nc(-c2ccccc2Cl)n3-c2ccc(Cl)cc2)CC1)c1ccccc1F  Ke (Cannabinoid receptor 1 (CNR1, Homo sapiens, UniProt P21554); antagonist, FLIPR calcium mobilisation; CHO-K1 expressing CNR1 and Gαq16; together with: CP55940): 0.8 nM
c1ccc(C(NCc2cccnc2)(c2ccccc2)c2ccccc2)cc1  Hill coefficient (Potassium voltage-gated channel subfamily KQT member 1, with KCNE1 (KCNQ1, Homo sapiens, UniProt P51787); IKs tail current, whole-cell patch clamp; tsA201 with KCNQ1-KCNE1 fusion): 0.88
Nc1nc2nccnc2c(=O)[nH]1  product formation (N-alpha-acetyltransferase 80 (NAA80, Homo sapiens, UniProt Q93015); substrate, DTNB; 2 mM, 30 min, 37 °C, together with: acetyl-CoA 500 µM): 0.18 µM
COc1ccc(-c2cc(=O)c3c(O)cc(O[C@@H]4O[C@H](CO)[C@@H](O)[C@H](O)[C@H]4O[C@@H]4O[C@@H](C)[C@H](O)[C@@H](O)[C@H]4O)cc3o2)cc1O  selectivity ratio (ESR1; array formation; PRL-HeLa; baseline: EC50 ERβ over EC50 ERα): 0.0542
CNCc1ccc(-c2[nH]c3cc(F)cc4c3c2CCNC4=O)cc1  cough incidence (patients; oral, 840 mg twice daily, all grades): 66.7%
COc1c(Nc2cc(C(F)(F)F)cc(C(F)(F)F)c2)c(=O)c1=O  pseudo-first-order rate constant (reaction with N-acetyl-lysine, HPLC-MS; pH 10.2, together with: N-α-acetyl-lysine): 6.1 h⁻¹
CC(=O)NCCc1c[nH]c2ccc(O)cc12  inhibition (Genome polyprotein NS3 helicase domain; DNA binding, inhibitor; hepatitis C virus; 100 µM, together with: Cy5-dT15 DNA): 0%
Nc1nc2c(ncn2[C@@H]2O[C@@H]3COP(=O)(O)O[C@H]4[C@@H](O)[C@H](n5cnc6c(=O)[nH]c(N)nc65)O[C@@H]4COP(=O)(O)O[C@H]3[C@H]2O)c(=O)[nH]1  ΔS (Cell cycle histidine kinase CckA, DHp-CA domains (Caulobacter vibrioides, UniProt Q9X688); ITC; together with: AMPPNP 5 mM): 24.1 cal/mol/K
O=C(COP(=O)(O)O)[C@@H](O)[C@H](O)[C@H](O)COP(=O)(O)O  thermal stability ratio (Crk-like protein (Homo sapiens, UniProt P46109); thermal proteome profiling; HepG2 cell lysate; 57 over 37 °C; baseline: compound over control): 0.526
O=C(OCc1ccccc1)c1ccccc1O  Km (Thuja plicata; enzyme activity, substrate, UPLC-UV/MS; 10 min, pH 7, 25 °C): 51.4 ± 10.8 µM
CC[C@H](C)[C@H](NC(=O)[C@H](CCCCN)NC(=O)CNC(=O)[C@@H](NC(=O)[C@@H](NC(=O)[C@H](CCSC)NC(=O)[C@H](Cc1c[nH]cn1)NC(=O)CN)[C@@H](C)O)C(C)C)C(=O)N[C@@H](Cc1ccc(O)cc1)C(=O)N[C@@H](C)C(=O)N[C@@H](C)C(=O)N[C@@H](CCSC)C(=O)N[C@@H](CCSC)C(=O)N[C@H](C(=O)N[C@@H](CCSC)C(=O)N[C@@H](CCC(=O)O)C(=O)N[C@@H](C)C(=O)N[C@@H](Cc1ccc(O)cc1)C(=O)N[C@@H](CCCNC(=N)N)C(=O)N[C@@H](CCC(N)=O)C(=O)N[C@@H](CO)C(=O)N[C@@H](CCCCN)C(=O)N[C@@H](C)C(=O)N[C@@H](CCCCN)C(=O)N[C@@H](CCCCN)C(=O)N[C@@H](CC(C)C)C(=O)N[C@@H](CCC(N)=O)C(=O)N[C@@H](C)C(=O)N[C@@H](CCSC)C(=O)N[C@@H](CCCNC(=N)N)C(=O)O)[C@@H](C)CC  ΔH (Calmodulin-1, Ca2+-bound N-lobe (CALM1, Homo sapiens, UniProt P0DP23); binding, isothermal titration calorimetry; pH 7.4, 15 °C, N-lobe, CaV2.1 IQ domain, together with: Ca2+): -3.9 ± 0.63 kcal/mol
Nc1ncnc2c1ncn2[C@@H]1O[C@H](COP(=O)(O)CP(=O)(O)OP(=O)(O)O)[C@@H](O)[C@H]1O  specific binding (P2X purinoceptor 1 (P2RX1, Homo sapiens, UniProt P51575); saturation binding; HEK293; 130 nM): 6030 CCPM and 8710 CCPM and 10900 CCPM and 10200 CCPM and 5410 CCPM
C#Cc1ccc(C(F)(F)F)cc1C=O  pseudo-first-order rate constant (reaction with N-acetyl-lysine, HPLC-MS; pH 10.2, together with: N-α-acetyl-lysine): 3 h⁻¹
c1csc(CNc2cc[nH]n2)c1  cells with numerical aberrations (human peripheral blood lymphocytes (female); 2160 µg/mL, 4 h, repeat, together with: without S9): 0.5%
CC(C)C[C@H](NC(=O)C[C@H](O)[C@H](CC(C)C)NC(=O)[C@H](Cc1c[nH]cn1)NC(=O)CNC(=O)[C@@H](NC(=O)[C@H](C)NC(=O)[C@H](Cc1c[nH]c2ccccc12)NC(=O)[C@H](CCC(N)=O)NC(=O)[C@@H](Cc1ccccc1)NC(=O)COCCOCCNC(=O)CCC(C(=O)O)N1CCN(CC(=O)O)CCN(CC(=O)O)CCN(CC(=O)O)CC1)C(C)C)C(N)=O (stereo partly shown) [lutetium-177 labelled]  tissue uptake (BALB/c nu/nu mice, bone; intravenous, 100 pmol, 1 h, together with: PA 300 µg): 0.1 ± 0.1 %ID/g
CC(C)NCC(O)COc1cccc2ccccc12 (stereo not shown)  activation (Glutamate receptor 2 (Homo sapiens, UniProt P42262); ion current, agonist, SyncroPatch patch clamp; HEK293; 10 µM): 4%
Cc1cc(C(C)(C)C)cc(C)c1CC1=NCCN1  inhibition (Genome polyprotein NS3 helicase domain; DNA binding, inhibitor; hepatitis C virus; 100 µM, together with: Cy5-dT15 DNA): 1%
Cn1cc(-c2ccc(-c3cncc(Cl)c3N3CCC4(CCNC4=O)CC3)cc2)cn1  log2 fold change (COLO 205; gene expression, microarray, refers to: SLC2A4 mRNA; concentration not given, 2 h; baseline: untreated cells): -3.11
COC(=O)[C@H]1[C@H]2C[C@H]3c4[nH]c5ccccc5c4CCN3C[C@H]2CC[C@@H]1O  inhibition (Genome polyprotein NS3 helicase domain; DNA binding, inhibitor; hepatitis C virus; 100 µM, together with: Cy5-dT15 DNA): 0%
CC(C)[C@H](NC(=O)[C@H](Cc1ccc(O)cc1)NC(=O)[C@H](Cc1ccc(O)cc1)NC(=O)[C@@H]1CCCN1C(=O)[C@H](CCC(=O)O)NC(=O)[C@H](CCC(=O)O)NC(=O)[C@H](Cc1c[nH]c2ccccc12)NC(=O)[C@@H]1CCCN1C(=O)[C@@H](NC(=O)[C@H](CCC(N)=O)NC(=O)c1ccc2c(c1)C(=O)OC21c2ccc(O)cc2Oc2cc(O)ccc21)C(C)C)C(=O)N[C@H](C(=O)N[C@@H](CCCCN)C(=O)N[C@@H](CCCCN)C(=O)N[C@@H](CO)C(=O)N[C@@H](CO)C(=O)NCC(=O)NCC(N)=O)C(C)C  total plasma concentration (human, plasma; intravenous infusion, 100 mg, predose 0 min, day 1): not detected
N#CC1CCN(C(=O)c2ccc(NC3COC3)cc2)CC1  binding (WD repeat-containing protein 91 WD40 domain, residues 392–747; SPR; 45 µM): -15% and -45%
O=C1NCCc2nc(OCc3cccc(F)c3)ccc21  log cooperativity factor beta (Metabotropic glutamate receptor 5 (Grm5, Rattus norvegicus, UniProt P31424); calcium flux, positive allosteric modulator; together with: glutamate): 0.234 ± 0.039
C=CC(=O)N1CCN(C(=O)c2ccco2)CC1  FP signal (14-3-3 protein sigma, with ERα phosphopeptide (SFN, Homo sapiens, UniProt P31947); binding, fluorescence polarization; covalent ligand screen, together with: phosphorylated ERalpha peptide; baseline: control): 95.2%
O=C(O)C1CCCNC1 (stereo not shown)  normalised MST signal (Sodium- and chloride-dependent taurine transporter (SLC6A6, Homo sapiens, UniProt P31641, G62A); binding, microscale thermophoresis; 500 µM, room temperature, together with: 50 nM labelled protein; higher = more binding): 0.511
CC(C)C[C@H](NC(=O)C[C@H](O)[C@H](CC(C)C)NC(=O)[C@H](Cc1c[nH]cn1)NC(=O)CNC(=O)[C@@H](NC(=O)[C@H](C)NC(=O)[C@H](Cc1c[nH]c2ccccc12)NC(=O)[C@H](CCC(N)=O)NC(=O)[C@@H](Cc1ccccc1)NC(=O)COCCOCCNC(=O)CN1CCN(CC(=O)O)CCN(CC(=O)O)CCN(CC(=O)O)CC1)C(C)C)C(N)=O [lutetium-177 labelled]  tissue uptake (female BALB/c nu/nu mice, lung; intravenous, 50 pmol, 1 h): 0.5 ± 0.1 %ID/g
COc1cc(/C=C/c2cc(/C=C/c3ccc(O)c(OC)c3)n(-c3ccc(Cl)cc3Cl)n2)ccc1O  ΔG (haemin; binding, isothermal titration calorimetry; pH 7.4, 37 °C): -9.13 ± 0.454 kcal/mol
O=c1nc(SCc2cc(F)cc(C(F)(F)F)c2)nc(SCc2ccc3sccc3c2)[nH]1  decatenated DNA (DNA topoisomerase 2-alpha (TOP2A, Homo sapiens, UniProt P11388); decatenation; 15.6 µM, replicate 2): 0.17%
C[N+](C)(C)CCCCCC[N+](C)(C)C.[Cl-].[Cl-]  inhibition (Genome polyprotein NS3 helicase domain; DNA binding, inhibitor; hepatitis C virus; 100 µM, together with: Cy5-dT15 DNA): 0%
CN1CCc2ccc(C(=O)N3CCN(C(=O)C4CCC(C#N)CC4)CC3)cc2C1 (stereo not shown)  binding (WD repeat-containing protein 91 WD40 domain, residues 392–747; SPR; 45 µM): -6% and -10%
Oc1ccc(/C=C/c2cc(O)cc(O)c2)cc1  cooperativity factor (O-methyltransferase (Sorghum bicolor, UniProt A0A1B6PFV1); ITC two-site model; endothermic site, together with: sinefungin): 2.9
Cc1ccc(N2CC(C(N)=O)CC2=O)cc1 (stereo not shown)  fold enrichment (Transducin-like enhancer protein 4 (TLE4, Homo sapiens, UniProt Q04727); binding, affinity selection mass spectrometry; baseline: other proteins in batch): 0.77
N#CC1CCN(C(=O)c2ccc(S(=O)(=O)N3CCCc4ccccc43)cc2)CC1  SPR response (WD repeat-containing protein 91 WD40 domain, residues 392–747; binding, SPR single-concentration screen; 45 µM): 0.4 RU and 3.4 RU
CCN(CC)CCn1c(=O)c(Cc2ccc(OC)cc2)nc2ccccc21.Cl  inhibition (Genome polyprotein NS3 helicase domain; DNA binding, inhibitor; hepatitis C virus; 100 µM, together with: Cy5-dT15 DNA): 0%

Repeated from above:
C[N+](C)(C)CCCCCC[N+](C)(C)C.[Cl-].[Cl-]  inhibition (Genome polyprotein NS3 helicase domain; DNA binding, inhibitor; hepatitis C virus; 100 µM, together with: Cy5-dT15 DNA): 0%
CN1CCc2ccc(C(=O)N3CCN(C(=O)C4CCC(C#N)CC4)CC3)cc2C1 (stereo not shown)  binding (WD repeat-containing protein 91 WD40 domain, residues 392–747; SPR; 45 µM): -6% and -10%
Oc1ccc(/C=C/c2cc(O)cc(O)c2)cc1  cooperativity factor (O-methyltransferase (Sorghum bicolor, UniProt A0A1B6PFV1); ITC two-site model; endothermic site, together with: sinefungin): 2.9
Cc1ccc(N2CC(C(N)=O)CC2=O)cc1 (stereo not shown)  fold enrichment (Transducin-like enhancer protein 4 (TLE4, Homo sapiens, UniProt Q04727); binding, affinity selection mass spectrometry; baseline: other proteins in batch): 0.77
